Published values collected from several papers.
± marks the error that the study gave.
Chain of UniProt Q4VWF8 (whole entry, looked up): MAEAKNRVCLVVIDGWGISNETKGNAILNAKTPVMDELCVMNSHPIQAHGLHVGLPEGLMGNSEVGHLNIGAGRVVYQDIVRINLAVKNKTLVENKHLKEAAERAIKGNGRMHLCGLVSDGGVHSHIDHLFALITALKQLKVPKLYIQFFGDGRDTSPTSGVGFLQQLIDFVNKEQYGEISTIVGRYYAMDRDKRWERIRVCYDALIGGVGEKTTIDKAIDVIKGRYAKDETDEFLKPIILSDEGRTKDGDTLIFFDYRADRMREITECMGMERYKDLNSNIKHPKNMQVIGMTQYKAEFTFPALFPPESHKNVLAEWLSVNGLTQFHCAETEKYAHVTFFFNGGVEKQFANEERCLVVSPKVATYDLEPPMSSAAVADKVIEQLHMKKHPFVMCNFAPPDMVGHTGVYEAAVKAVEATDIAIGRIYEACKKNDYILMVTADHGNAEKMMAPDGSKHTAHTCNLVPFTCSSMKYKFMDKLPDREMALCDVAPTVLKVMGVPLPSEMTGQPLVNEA

C[C@H](NC(=O)[C@H](CCC(N)=O)NC(=O)[C@H](C)NC(=O)[C@H](CCCCN)NC(=O)[C@H](CCC(N)=O)NC(=O)[C@H](C)NC(=O)[C@H](CCCCN)NC(=O)[C@H](CCC(N)=O)NC(=O)[C@H](C)NC(=O)[C@H](CCC(N)=O)NC(=O)[C@H](CCCCN)NC(=O)[C@H](C)NC(=O)[C@H](CCC(N)=O)NC(=O)[C@H](CCCCN)NC(=O)[C@H](C)NC(=O)[C@H](CCC(N)=O)NC(=O)[C@H](C)NC(=O)[C@H](CCCCN)NC(=O)[C@H](CCC(N)=O)NC(=O)[C@H](C)NC(=O)[C@H](CCCCN)NC(=O)[C@H](CO)NC(=O)[C@H](Cc1ccc(O)cc1)NC(=O)CNC(=O)CNC(=O)CN)C(=O)N[C@@H](CCCCN)C(=O)N[C@@H](CCC(N)=O)C(=O)N[C@@H](C)C(=O)N[C@@H](CCCCN)C(=O)N[C@@H](CCC(N)=O)C(=O)O
Rmax (binding, SPR Langmuir fit; rVλ6Wil fibrils; 300 nM, pH 7.4): 71.5 RU

COc1cc(C(=O)NCCOCCOCCOCCNC(=O)c2ccc([18F])nc2)ccc1NC(=O)C1NC(CC(C)(C)C)C(C#N)(c2ccc(Cl)cc2F)C1c1cccc(Cl)c1F (stereo not shown)
tracer uptake (HepG2 tumour model; host not given, spleen; 2 h, tumour-bearing): 0.79 %ID/g

COc1ccc2ccc3c(c2c1)C=[N+]1C2CCCCC2[N+]2=Cc4cccc(OC)c4[O][Au-]21[O]3.F[P-](F)(F)(F)(F)F (stereo not shown)
IC50 (Klebsiella pneumoniae thioredoxin reductase; cellular enzyme activity, inhibitor; Klebsiella pneumoniae, carbapenem-resistant; 4 h): 7.94 µM

CCCCCCCCC(=O)NCc1ccc(O)c(OC)c1
IC50 (mAb 2-LD2; antibody binding, indirect competitive ELISA; together with: coating antigen hapten 3-OVA): 0.00121 µg/mL

COCO[C@H]1[C@H](O)[C@@H](N)[C@@H](O[C@H]2[C@H](O[C@@H]3O[C@H](CO)[C@@H](O[C@H]4O[C@@H](CN)[C@@H](O)[C@H](O)[C@H]4N)[C@H]3O)[C@@H](O)[C@H](N)C[C@@H]2N)O[C@@H]1CO
IC50 (ribosome with human cytosolic A site; luciferase translation, cell-free translation): 89.8 ± 4.87 µg/mL

CC[C@H](C)[C@@H]1NC(=O)[C@H](Cc2ccc(O)cc2)NC(=O)[C@@H](N)CSSC[C@@H](C(=O)N2CCC[C@H]2C(=O)N2CCC[C@H]2C(=O)NCC(N)=O)NC(=O)[C@H](CC(N)=O)NC(=O)[C@H](CCC(N)=O)NC1=O
IC50 (oxytocin receptor (titi monkey); membrane hyperpolarisation; CHO cells): 3.86e-05 µM

C/C=C1\NC(=O)[C@H](Cc2ccccc2)NC(=O)[C@H](C(C)C)NC(=O)[C@H](Cc2ccccc2)NC(=O)[C@H](CCC(N)=O)NC(=O)[C@H](Cc2c[nH]c3ccccc23)NC(=O)[C@H]2CSC[C@@H](C(=O)N[C@@H](CO)C(=O)O)NC(=O)[C@H](CSC[C@H]3NC(=O)[C@H]([C@@H](C)CC)NC(=O)[C@H](NC(=O)[C@H](Cc4c[nH]cn4)NC(=O)[C@@H](NC(=O)[C@@H](NC(=O)CNC(=O)[C@H](CO)NC(=O)CNC(=O)CNC(=O)[C@@H](N)CCCCN)C(C)C)[C@@H](C)CC)[C@H](C)SC[C@H](NC(=O)[C@H](CCC(=O)O)NC(=O)[C@H](Cc4c[nH]cn4)NC3=O)C(=O)N[C@@H](CC(N)=O)C(=O)N[C@@H](CCSC)C(=O)N[C@@H](CC(N)=O)C(=O)N2)NC1=O
IC50 (PBP1b, Escherichia coli; transglycosylation, inhibitor; together with: [14C]GlcNAc-labelled lipid II): 12 ± 2.3 µM

CCCCO[C@H]1[C@H](O)[C@@H](N)[C@@H](O[C@H]2[C@H](O[C@@H]3O[C@H](CO)[C@@H](O[C@H]4O[C@@H](CN)[C@@H](O)[C@H](O)[C@H]4N)[C@H]3O)[C@@H](O)[C@H](N)C[C@@H]2N)O[C@@H]1CO
IC50 (ribosome with human cytosolic A site; luciferase translation, cell-free translation): 161 ± 13.9 µg/mL

COc1ccc2ccc3c(c2c1)C=[N+]1C2CCCCC2[N+]2=Cc4ccc(OCCN5CCCCC5)cc4[O][Au-]21[O]3.F[P-](F)(F)(F)(F)F (stereo not shown)
IC50 (Klebsiella pneumoniae thioredoxin reductase; inhibitor; carbapenem-resistant; together with: DTNB): 16.5 µM

CN1C(=O)[C@H](CCC(=O)O)NC(=O)[C@H](Cc2ccc(O)cc2)NC(=O)[C@H](CCCNC(=N)N)NC(=O)[C@@H](Cc2ccc(O)cc2)NC(=O)CSC[C@@H](C(N)=O)NC(=O)[C@H](CCCCN)NC(=O)[C@@H]2CCCN2C(=O)[C@H](CS)NC(=O)[C@H](CCC(=O)O)NC(=O)[C@H](Cc2ccc(O)cc2)N(C)C(=O)[C@H](CCCCN)NC(=O)[C@H](Cc2ccc(O)cc2)NC(=O)[C@@H]1Cc1ccc(O)cc1
AC50 (ipgm-1 (Brugia malayi, UniProt Q4VWF8); enzyme activity, inhibitor, luminescent coupled-enzyme ATP): 1.7 µM

C/C=C1\NC(=O)[C@H](Cc2ccccc2)NC(=O)[C@H](C(C)C)NC(=O)[C@H](Cc2c[nH]cn2)NC(=O)[C@H](CCC(N)=O)NC(=O)[C@H](Cc2c[nH]c3ccccc23)NC(=O)[C@H]2CSC[C@@H](C(=O)N[C@@H](CO)C(=O)O)NC(=O)[C@H](CSC[C@H]3NC(=O)[C@H]([C@@H](C)CC)NC(=O)[C@H](NC(=O)[C@H](Cc4c[nH]cn4)NC(=O)[C@@H](NC(=O)[C@@H](NC(=O)CNC(=O)[C@H](CO)NC(=O)CNC(=O)CNC(=O)[C@@H](N)CCCCN)C(C)C)[C@@H](C)CC)[C@H](C)SC[C@H](NC(=O)[C@H](CCC(=O)O)NC(=O)[C@H](Cc4c[nH]cn4)NC3=O)C(=O)N[C@@H](CCCNC(=N)N)C(=O)N[C@@H](CCSC)C(=O)N[C@@H](CC(N)=O)C(=O)N2)NC1=O
IC50 (PBP1b, Escherichia coli; transglycosylation, inhibitor; together with: [14C]GlcNAc-labelled lipid II): 7 ± 2.9 µM

CN[C@](C)(C[18F])C(=O)O
tracer uptake (MDA-MB-468 tumour model; host not given, tumour; 30 min, tumour-bearing): 2.3 %ID/g

CC1OCC2OC(OC3C(N)CC(N)C(O)C3OC3OC(CO)C(OC4OC(CN)C(O)C(O)C4N)C3O)C(N)C(O)C2O1 (stereo not shown)
IC50 (ribosome with human cytosolic A site; luciferase translation, cell-free translation): 126 ± 71.7 µg/mL

Repeated from above:
COc1ccc2ccc3c(c2c1)C=[N+]1C2CCCCC2[N+]2=Cc4ccc(OCCN5CCCCC5)cc4[O][Au-]21[O]3.F[P-](F)(F)(F)(F)F (stereo not shown)
IC50 (Klebsiella pneumoniae thioredoxin reductase; inhibitor; carbapenem-resistant; together with: DTNB): 16.5 µM
